Assay results of several laboratories.
Parts stem from different laboratories: compare values within a part only. Changes are numbered by the printed parent chain.

Block 1
Target: ABI1, truncated, D143A, DHFR fusion (Arabidopsis thaliana)
Technique: DHFR PCA, deep sequencing
Matrix: yeast
Notes: methotrexate growth selection, single substitutions
With: (+)-ABA 200 µM
Reference: wild-type fitted maximum
Direction: higher = stronger binding
Starting sequence: PYL1, truncated, DHFR fusion (Arabidopsis thaliana); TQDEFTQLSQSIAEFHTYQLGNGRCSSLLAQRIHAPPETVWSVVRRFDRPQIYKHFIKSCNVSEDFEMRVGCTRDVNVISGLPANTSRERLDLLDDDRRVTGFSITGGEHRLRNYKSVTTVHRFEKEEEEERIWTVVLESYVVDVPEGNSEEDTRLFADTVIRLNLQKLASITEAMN; partner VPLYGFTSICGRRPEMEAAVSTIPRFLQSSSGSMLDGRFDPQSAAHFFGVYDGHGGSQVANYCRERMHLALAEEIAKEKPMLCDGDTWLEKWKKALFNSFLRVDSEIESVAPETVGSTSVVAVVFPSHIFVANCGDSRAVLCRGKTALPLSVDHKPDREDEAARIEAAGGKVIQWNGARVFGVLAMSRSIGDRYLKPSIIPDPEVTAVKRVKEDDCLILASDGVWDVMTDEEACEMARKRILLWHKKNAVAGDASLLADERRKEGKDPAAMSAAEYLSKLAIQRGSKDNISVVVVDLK
| Variant | relative binding score [%] |
| --- | --- |
| H122F | -0.403 |
| E139R | 5.6 |
| L91C | 86.2 |
| N177P | 89.6 |
| L93K | 91.9 |
| L91S | 4.3 |
| E130N | 115 |
| S150D | 91.4 |
| F47I | -5.11 |
| L8D | 53.2 |
| W134K | 93.1 |
| C60H | 3.56 |

Block 2
Target: Interferon regulatory factor 3, full length, phosphomimetic (IRF3, Homo sapiens, UniProt Q14653, residues 1-427, S386D/S396D/S398D/S402D/T404D/S405D)
UniProt Q14653, sequence (whole entry, unmodified, looked up): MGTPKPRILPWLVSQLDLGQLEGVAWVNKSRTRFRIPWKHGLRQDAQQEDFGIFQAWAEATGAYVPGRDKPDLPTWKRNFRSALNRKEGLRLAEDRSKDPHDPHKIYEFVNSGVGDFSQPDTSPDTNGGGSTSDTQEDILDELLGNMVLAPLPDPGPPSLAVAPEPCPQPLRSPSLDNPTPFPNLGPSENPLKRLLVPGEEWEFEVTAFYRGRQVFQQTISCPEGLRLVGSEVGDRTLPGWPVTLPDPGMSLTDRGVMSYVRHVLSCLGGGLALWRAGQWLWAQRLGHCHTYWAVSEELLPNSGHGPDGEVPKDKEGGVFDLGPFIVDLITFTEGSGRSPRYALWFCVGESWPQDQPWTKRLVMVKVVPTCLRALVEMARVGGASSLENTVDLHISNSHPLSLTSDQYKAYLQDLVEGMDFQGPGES
Technique: protein-binding microarray
Form: double-stranded DNA, one strand shown
Matrix: in vitro
Tested at: 2540 nM top
Notes: 60-bp whole probe
With: salmon DNA 0.4 mg/ml
Reference: random background probes
Direction: higher = stronger binding
Constant ends, left off below: GCCTAGCAC … GTCTTGATTCGCTTGACGCTGCTG
| Oligonucleotide | fitted relative affinity [z-score] |
| --- | --- |
| TTAGATATCAATTTCGATTAGTGCTAG | 2.19 |
| CTGTTTTTGCTTTCTTTTTGGTGCTAG | 2.9 |
| TTAGGTATCCTTATCCTTTAGTGCTAG | 5.12 |
| GACGGTATCGGACTAGGGACGTGCTAG | 2.07 |
| TTAGATTTCGGGACGGGATTAGTGCTA | 0.882 |
| TTAGGACTGCTTATCCTTTCGTGCTAG | 0.48 |
| ATATTGATGGCTCTCTGGACGTGCTAG | -0.258 |
| TTAGGTATCCTTTTCATTTAGTGCTAG | 7.87 |
| TTAGGACAGGGACTGGGTTAGTGCTAG | -0.821 |
| GACGGTTTCGGCTATCGGGACGTGCTA | 3.32 |
| TCATGTTGCAAATATTGCACTGTGCTA | 0.249 |
| GCCGATATCGGGTATCGAGACGTGCTA | 0.796 |
| TTCGGTCTCGGACTGGGTTAGTGCTAG | 0.411 |
| TCAGTTTTACAGGTTCTCACTGTGCTA | 1.05 |
| GACGATCTTAGTCTCGAGACGTGCTAG | 0.522 |
| GACGGTTTCGGTCTCGGGAAGTGCTAG | 8.71 |
| TTAGTACTGGGGACTGGGTTAGTGCTA | -0.732 |
| TCCGTATGGATGGCCAATTGGTGCTAG | 0.0485 |
| TTAGGTCTCGGTCTCGGTCAGTGCTAG | 1.04 |
| GACGGTTTCGGTTTAGGGACGTGCTAG | 9.27 |
| TTAGGGTTCGACTATCGGTTAGTGCTA | -0.079 |
| TTAGGACTGGACTTTCGGTTTGTGCTA | 2.7 |
| TTAGATTTCGAGTATCGATTAGTGCTA | 1.22 |
| TTAGATATCAGTATCGATTTGTGCTAG | 2.73 |

Block 3
Target: RING finger protein unkempt homolog, zinc fingers 1-6, GST-SBP tag (UNK, Homo sapiens, UniProt Q9C0B0, residues 30-357)
Technique: RNA Bind-n-Seq
Form: RNA
Matrix: in vitro
Tested at: not given
Notes: RNA with constant flanks, human and mouse sites, ends assumed
Reference: input RNA pool
Direction: higher = stronger binding
Construct (chain): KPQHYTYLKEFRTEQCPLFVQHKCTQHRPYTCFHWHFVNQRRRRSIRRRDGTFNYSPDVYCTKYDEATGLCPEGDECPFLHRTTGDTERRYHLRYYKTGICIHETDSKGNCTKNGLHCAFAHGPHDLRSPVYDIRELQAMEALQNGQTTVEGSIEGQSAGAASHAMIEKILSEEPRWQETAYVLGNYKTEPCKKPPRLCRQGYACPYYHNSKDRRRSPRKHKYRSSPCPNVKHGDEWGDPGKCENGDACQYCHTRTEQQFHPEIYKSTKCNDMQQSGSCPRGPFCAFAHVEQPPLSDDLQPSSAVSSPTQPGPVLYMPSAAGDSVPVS
| Oligonucleotide | bound/input enrichment [ratio] |
| --- | --- |
| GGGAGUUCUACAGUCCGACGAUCGACUUUGGGACUGGUCCUCGCAACGCAGCCUUCUAUAGCCCUCAUGGACAUAUAUUAGUGCUGGCUGGAUUUGGAAAUCUUCGAGGACAAAUGGAAGUAUGGGAUGUUAAAAACUACAAGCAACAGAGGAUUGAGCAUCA | 0.356 |
| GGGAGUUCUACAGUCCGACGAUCAUGUCAAUGUCAUCAUCGCCUCCCACCUGCUGCUCUGCUCUGUGCCUGGAGACUGAGCAUUUAUUUACCACAGACGCCACACGAAGCUUUUCACUCCAGCGUGGUUGGCAAUGCAGAUUCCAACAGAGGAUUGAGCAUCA | 0.0782 |
| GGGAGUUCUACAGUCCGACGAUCAUUGUUGAAGCUAACCCACUCCUAGAAGCCUUUGGAAAUGCGAAGACUGUUCGCAACAAUAAUAGCAGUCGAUUUGGGAAAUUUGUAGAAAUACAUUUUAAUGAAAAGAGCUCAGUUGUUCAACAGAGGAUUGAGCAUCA | 0.84 |
| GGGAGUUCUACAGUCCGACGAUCCUUUCUGACUAUCAGCGUAUUCGAGUGGAAAAUGUGUGUAAAAGGCUUAAUCUCCAGCCUUUAGCUUAUCUUUGGCAGAGAAACCAGGAAGAUUUGCUCAGAGAGAUGAUAUCAUCUAACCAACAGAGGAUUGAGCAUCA | 0.127 |
| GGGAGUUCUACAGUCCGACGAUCAAUGACGUGGAGCUUUAUGGACAAUACCUUGAGAGGUUAAAACAGUUCGUGUCACAGGAACUGGUAAAUUUGUAAACUACUCUGUAAAUUUGCAGACUGGGUUUUCUUUUCUUGCUGAACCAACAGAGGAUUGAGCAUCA | 0.153 |
| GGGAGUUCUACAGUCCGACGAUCGAUAUUCUCUACGCCCGGCAAAAGAUUGUUGUCAUAGCGAAAGCCUUUGGUCUCCAAGCCAUAGAUCUGGUGUACAUUGACUUUCGAGAUGGAGCUGGGCUGCUUAGACAGUCACGAGAACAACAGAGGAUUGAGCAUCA | 0.151 |
| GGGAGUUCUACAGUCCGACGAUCAGAGGGAGCCAAACAAAGCUGCUGUGCUAUAUGAUGCUGUUUUCUUUAUUUGUCUUUUUUAUCAUUUAUUGGAUUAUUAAACUGAGGUGAUGCAUGUAAUUGUGAAUUUGGAAUUUGUUCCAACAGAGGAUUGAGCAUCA | 0.352 |
| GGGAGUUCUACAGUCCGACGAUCACCCCUGCUUUGUACAUGCUGUCUCCCUUCAGUCCUCUCAGAAGAAUAUCUAUUAAGAUUUUAGUGCACUCCUUAUUCAGCAUGCUAAUCAUGUGCACAAUUCUGACAAACUGCAUAUUCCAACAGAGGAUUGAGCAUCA | 0.237 |
| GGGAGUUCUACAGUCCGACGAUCGGGGCCGGCGAGGAGGCGCGGACGGCGGGGCGCAGGCUGCUUCCCUGUUGCACCUUUGAUAUCGUUUCCUAGACUCCGUUCCAUGAUUUAAUUUGGAAUUCUGAGAUGAAGAUGGAGGAGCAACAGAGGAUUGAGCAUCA | 0.244 |
| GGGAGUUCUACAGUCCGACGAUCCUUGGUUUGCCUAUGUCAAGAUCACAGCCUUUGCAAAAUGUUAGCACAGUGCUGCAGAAGCCUAAUCCUCUCUAUAAUCAGAAUACAGAUAUGGUCCAGAAAUCAGUCAGCAAAACCUUGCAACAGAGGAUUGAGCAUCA | 0.219 |
| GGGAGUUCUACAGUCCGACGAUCAGUGUUAAAUUUAACCCUGUUGAGACAUUUCUCUUGGGAAGUUGUGCUUCUGAUAGGAAUAUAGUACUGUAUGAUAUGCGGCAAGCUACUCCUUUGAAAAAGGUUAUCCUGGAAAUGAGGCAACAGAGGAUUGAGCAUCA | 0.39 |

Block 4
Target: CCNB2, cyclin fold, Cln2 fusion (human)
Technique: yeast growth competition, sequencing
Matrix: yeast
Notes: weak parent motif
Reference: not given
Direction: higher = stronger binding
Starting sequence: PKN2 docking peptide (human); VSAVQKLDFSDTM
| Variant | normalised enrichment score |
| --- | --- |
| F9E | -0.447 |
| S10G | 0.217 |
| K6V | -0.000702 |
| S2C | 0.148 |
| K6Y | -0.569 |
| D8Y | 0.144 |
| V4M | 0.0974 |
| S10W | -0.195 |
| V4L | -0.19 |
| M13E | 0.672 |
| M13I | 0.26 |
| L7W | 0.0529 |
| F9W | -0.612 |
| V4R | 0.432 |
| S2D | -0.156 |
| L7S | -0.379 |
| V4P | -0.185 |
| F9Q | -0.297 |
| S10V | -0.0713 |
| M13Q | -0.045 |
| D8G | -0.429 |
| V1M | 0.0416 |
| D11R | -0.0411 |
| F9P | -0.245 |
| L7Q | -0.282 |

Repeated from above (block 2):
| Oligonucleotide | fitted relative affinity [z-score] |
| --- | --- |
| GACGGTTTCGGCTATCGGGACGTGCTA | 3.32 |
| TCATGTTGCAAATATTGCACTGTGCTA | 0.249 |
| GCCGATATCGGGTATCGAGACGTGCTA | 0.796 |
| TTCGGTCTCGGACTGGGTTAGTGCTAG | 0.411 |
| TCAGTTTTACAGGTTCTCACTGTGCTA | 1.05 |
| GACGATCTTAGTCTCGAGACGTGCTAG | 0.522 |
| GACGGTTTCGGTCTCGGGAAGTGCTAG | 8.71 |
| TTAGTACTGGGGACTGGGTTAGTGCTA | -0.732 |
| TCCGTATGGATGGCCAATTGGTGCTAG | 0.0485 |
| TTAGGTCTCGGTCTCGGTCAGTGCTAG | 1.04 |
| GACGGTTTCGGTTTAGGGACGTGCTAG | 9.27 |
